Measurements from different studies.
A part holds a random share of what one study measured.

Study 1 — technique: competition protein-binding microarray; molecule type: double-stranded DNA, one strand shown; matrix: in vitro; tested at: 2 µM; with: Pho4 competitor, 0.05 µM; reading: higher = stronger binding; endpoint: fluorescence intensity
Target: Centromere-binding protein 1, full length, His-tagged (CBF1, Saccharomyces cerevisiae, UniProt P17106, residues 1-351)
UniProt P17106, sequence (whole entry, looked up): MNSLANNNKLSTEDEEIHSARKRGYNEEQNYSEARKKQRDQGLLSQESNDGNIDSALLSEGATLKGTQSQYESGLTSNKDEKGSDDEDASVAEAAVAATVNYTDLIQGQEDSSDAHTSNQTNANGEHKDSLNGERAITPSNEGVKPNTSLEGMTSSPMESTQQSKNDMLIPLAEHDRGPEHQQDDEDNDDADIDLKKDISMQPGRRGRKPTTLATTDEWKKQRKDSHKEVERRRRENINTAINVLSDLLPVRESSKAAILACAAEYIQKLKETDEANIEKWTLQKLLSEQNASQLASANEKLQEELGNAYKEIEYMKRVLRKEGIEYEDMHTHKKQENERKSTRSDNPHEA
Notes: whole 60-bp probe, lowest competitor level
GGAGTCAACGCTTTGCACGTGACGGCGGTACATAGTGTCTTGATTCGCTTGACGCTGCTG: 4660 a.u.
CCGAGGTTTGTTGGGTACGTGCAAAAGCGCCTGGGCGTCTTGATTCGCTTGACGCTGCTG: 61.8 a.u.
CTTTCCCGATCTTGACATGTGGGTGTAGCACATTTGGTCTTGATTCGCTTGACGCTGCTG: 83.4 a.u.
AAATTACTAAGTTGCCATGTGGGTGACGCCGTATGAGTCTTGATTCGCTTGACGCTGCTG: 100 a.u.
CGACTGAAAAACTCAAACGTGCTTTACCGCCAAGCAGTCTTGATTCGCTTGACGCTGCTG: 90.4 a.u.
CTTCTGTAAATTTGAGATGTGGGTGGACGCGCCCCGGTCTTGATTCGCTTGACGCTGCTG: 91.1 a.u.
CACAATGAAAAGGTCCACGTGGTGGGGACTGAGGCCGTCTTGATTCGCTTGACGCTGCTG: 1020 a.u.
CGGGGTTAAGTTTGGCCAGTGGGTGGCTTGCAGCAGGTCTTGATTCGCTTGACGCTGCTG: 59.3 a.u.
ATTTGAAGCTCCAATCACGTGATGGAAAGCTGTAAGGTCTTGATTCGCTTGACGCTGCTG: 9730 a.u.
CATACCCAACCTTGACGGGTGGGTGAAGATATTTGTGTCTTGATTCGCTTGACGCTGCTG: 66.2 a.u.
CATACCCAACCTTGATGGGTGGGTGAAGATATTTGTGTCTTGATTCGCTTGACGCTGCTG: 67 a.u.
CTAACGAAGGTTTGTACTGTGGGTGACAAGCCAAGTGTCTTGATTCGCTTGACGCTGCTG: 72.5 a.u.
TGCCAAGCACTTTTCATCATGACAATTAGGGTAGATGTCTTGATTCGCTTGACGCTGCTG: 71.4 a.u.
AAAAGAGCGCAAGTACACATGCGATGCAAGGGCGGCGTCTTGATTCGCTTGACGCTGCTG: 64.8 a.u.
CCACCGTTTGAGAGTGGTGTGACAGGACGCCCAAGAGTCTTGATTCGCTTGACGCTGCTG: 73.6 a.u.

Study 2 — technique: RNA Bind-n-Seq; molecule type: RNA; matrix: in vitro; tested at: not given; reference: input RNA pool; reading: higher = stronger binding; endpoint: bound/input enrichment
Target: RING finger protein unkempt homolog, zinc fingers 1-6, GST-SBP tag (UNK, Homo sapiens, UniProt Q9C0B0, residues 30-357)
Notes: RNA with constant flanks, human-mouse chimeric sites, ends assumed
Residues (chain): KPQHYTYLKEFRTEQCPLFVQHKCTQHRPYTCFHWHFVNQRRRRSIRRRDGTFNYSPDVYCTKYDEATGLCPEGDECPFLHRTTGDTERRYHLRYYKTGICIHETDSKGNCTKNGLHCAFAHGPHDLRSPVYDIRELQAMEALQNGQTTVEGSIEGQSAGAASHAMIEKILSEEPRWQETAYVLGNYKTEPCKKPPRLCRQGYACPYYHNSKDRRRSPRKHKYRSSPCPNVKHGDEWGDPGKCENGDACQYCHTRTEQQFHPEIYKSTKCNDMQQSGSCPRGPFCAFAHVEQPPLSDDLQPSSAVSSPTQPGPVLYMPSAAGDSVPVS
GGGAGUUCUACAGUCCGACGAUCAGCACAACCCCAGCAAAGCUCAGGAACCCUUGUACAAGUGAACAAAACUGCACCAGCCCAUUUAGCUACAAAAAUGUGCUCAGUCUUACUGACAGAGGAGAGUUUUUCAAUGAACUUGUUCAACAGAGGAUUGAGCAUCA: 1.83 ratio
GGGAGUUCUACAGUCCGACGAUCUCCCAAAUCCAGCAGCUAGAAGGAGCCUUGAGACAAACACUCCACACACAGGGAAGGCAAUAGCUUUGUAAAUUGGUUUACAUUUUUUCCCCCUGUGGAUUUUUCUAGAGGUCAUAGUGCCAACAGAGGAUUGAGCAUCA: 0.56 ratio
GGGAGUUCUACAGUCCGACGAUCAAAGCCCUUGAAGAAAAAAAAAACUCGAACAGAUUUGACAAGGGUAGCCAGCUUGGAGUCUAGCAACUUGCCAAUGUGUUUACCAAUUUUGGGGGCUGUUUUUCUUUUCUUCUUUCAAAUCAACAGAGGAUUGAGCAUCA: 0.422 ratio
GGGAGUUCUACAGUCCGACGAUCGCAGGAUCUUCUAAGUACCAGUGGGACAUUAUGAAAUCCCUUGGGCUGUCUGAUGAAGACAUAGUGAAGUUUUCUGAAGCAGAACAUUGGCUUGAUUAUUUCCCACCACUGGCCGUUCAGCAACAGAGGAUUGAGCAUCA: 0.166 ratio
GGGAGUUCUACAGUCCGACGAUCAAAGUGAUGACUAUGUUUGUCCAACGACAGGUAUUUUCGGAGAGCAAGGAUGAGAUUGCGUUAGUCCUCUAUGGCACAGAUGGCACUGAUAAUGCCCUUUCUGGUGGGGACCAGUAUCAGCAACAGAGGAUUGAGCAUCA: 0.154 ratio
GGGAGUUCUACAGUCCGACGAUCGGGGAGAAACCUUACGAAUGCGUUCAGUGUGGGAAAUCCUACAGUCAGAGCUCAAACCUUUUUAGACAUCAGAGACGACACAAUGCAGAAAAACUUUUGAAUGUUGUGAAGGUUUAAGAACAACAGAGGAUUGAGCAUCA: 0.116 ratio
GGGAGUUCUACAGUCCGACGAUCGUGACUGGUGUUAAGAUUUCCCCUCAGCAAAGAAGUGCAGUAGUCACCAUAAUUCCAUCUGUGGUGAAUGCCAAUCAGAUUGUGGAGCUGGUCCCAGAACUCAGUUUAGACAUGGGAACUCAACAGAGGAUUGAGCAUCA: 0.42 ratio
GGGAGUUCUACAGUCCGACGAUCAUGGAAAAGGAUUCUCUGCCCCGCUUUGUGCGCUCUGAGUUUUAUCAGGAGCUAAUCAAGUAGUCAUCUGGUCAGGCUUCCAAAAGUUGCCCUGUGAGUUGAGUUACAUCCUUUGUAGCACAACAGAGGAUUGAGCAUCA: 0.185 ratio
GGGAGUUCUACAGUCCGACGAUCGGAUUCCGCUUCCGGUUCCGUUGGGCUCGGUUCUCUCCUGAGCUACGUGUCUCUACGCUCUCAAUCCGCCAUCCAACAAACAUGGAUCAGGUAAUGCAGUUUGUGGAUGAGCCAAGUCAGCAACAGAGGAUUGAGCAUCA: 0.0191 ratio
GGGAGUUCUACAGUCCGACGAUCCGGAGCCCUCCUCUCCCACAGGCCCAAGAUAUAACCCACCAGUGCCUUUUGUCUUCCUGUCAGCUCUGUCAAUCACGGCCCUGCCUUCACGCCCACACCAAGUGCCCCCACCCCUAAGGGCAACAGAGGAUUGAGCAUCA: 0.477 ratio
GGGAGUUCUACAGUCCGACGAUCGCUCUUGGGAAUGUAAUCAGCGCCUUGGGGGACAAGAGCAAGAGAGCCACCCAUGUCCCCUAUAGAGACUCUAAGCUGACAAGACUCCUACAGGAUUCCCUUGGGGGUAACAGCCAAACCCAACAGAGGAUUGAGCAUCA: 0.172 ratio

Study 3 — technique: RNA Bind-n-Seq; molecule type: RNA; matrix: in vitro; tested at: 1 µM; notes: whole 134-nt RNA, ends assumed; with: 150 mM KCl; reference: input library; reading: higher = stronger binding; endpoint: log2 enrichment
Target: Ras GTPase-activating protein-binding protein 1, C-terminal RGG region (G3BP1, Homo sapiens, UniProt Q13283)
UniProt Q13283, sequence (whole entry, looked up): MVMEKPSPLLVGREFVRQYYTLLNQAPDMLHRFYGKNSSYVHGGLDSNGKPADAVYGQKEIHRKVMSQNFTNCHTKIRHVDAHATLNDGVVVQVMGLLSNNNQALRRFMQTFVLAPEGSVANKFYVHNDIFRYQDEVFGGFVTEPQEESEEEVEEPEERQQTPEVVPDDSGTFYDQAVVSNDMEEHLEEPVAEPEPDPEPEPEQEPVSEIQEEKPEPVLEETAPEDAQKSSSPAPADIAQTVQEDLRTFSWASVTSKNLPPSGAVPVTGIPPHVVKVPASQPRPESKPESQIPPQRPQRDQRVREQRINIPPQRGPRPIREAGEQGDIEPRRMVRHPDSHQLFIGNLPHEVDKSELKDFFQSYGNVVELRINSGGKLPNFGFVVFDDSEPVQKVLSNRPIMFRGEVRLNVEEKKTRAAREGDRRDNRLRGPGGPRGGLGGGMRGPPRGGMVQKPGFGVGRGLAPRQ
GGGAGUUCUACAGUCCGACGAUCGCAGGAAGUAAAAACAAAUGGAAAUGCUUCGGAUAGUGGCAGGGGUGGGGGUUGCUAAGGAAAGGGUGGGUUGGGAGUGGGUAAAGAGUUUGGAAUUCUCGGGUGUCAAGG: 1.99
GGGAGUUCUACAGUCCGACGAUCCACAGACAACACGCACCCACACAGACACAGAGGGAAGGGCUUGGGAUGGGGACAGGGUGCACAGCAGGGCGGGGUAGGACCCCAGCCCCUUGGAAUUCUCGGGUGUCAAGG: -0.799
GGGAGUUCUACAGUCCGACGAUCUAACUUUAGAGGAGGAUCUGAUGGAUAUGGCAGUGGACGUGGAUUUGGGGAUGGCUAUAAUGGGUAUGGAGGAGGACCUGGAGAUGGCAAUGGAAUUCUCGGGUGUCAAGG: -1.08
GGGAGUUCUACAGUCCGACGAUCUGGCCCUGGUGGCAUGCGGGGAGGAAGAGGUGGCCUCAUGGAUCGUGGUGGUCCCGGUGGAAUGUUCAGAGGUGGCUGUGGUGGAGACAGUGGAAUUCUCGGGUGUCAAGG: 3.29
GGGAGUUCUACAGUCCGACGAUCUUUUACUUCUCCGCCAGGUGCUGUGCUCCAUCAUCGCCGGUACCUUGCACUAUCUCUACCUGGCCACCUUGACCUGGAUGCUGCUGGAGGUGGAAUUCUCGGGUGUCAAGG: 0.386

Study 4 — technique: Sort-seq; refers to: YFP reporter; matrix: E. coli; notes: PhoQ-PhoP variant library; with: 10 µM Mg2+; reference: high Mg2+ state; reading: higher = stronger signaling; endpoint: fold induction
Substance: PhoQ, residues 284 288 289 292 302 303 AGHLVA
PhoP, residues 12 14 15 18 19 LHHYF (Escherichia coli, UniProt P23836): 5.37
PhoP, residues 12 14 15 18 19 NFFVT (Escherichia coli, UniProt P23836): 16.5
PhoP, residues 12 14 15 18 19 TPWTL (Escherichia coli, UniProt P23836): 0.646

Repeated from above (study 1):
CCACCGTTTGAGAGTGGTGTGACAGGACGCCCAAGAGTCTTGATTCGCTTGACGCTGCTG: 73.6 a.u.
CGACTGAAAAACTCAAACGTGCTTTACCGCCAAGCAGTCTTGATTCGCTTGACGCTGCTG: 90.4 a.u.
